Measurements from different studies.
Protocols differ between the studies behind these lines. ± marks the error that the study gave.

`CSCC[C@H](NC(=O)CNC(=O)[C@H](CC(=O)O)NC(=O)[C@@H](NC(=O)[C@@H](NC(=O)[C@@H](NC(=O)CNC(=O)[C@H](CCC(N)=O)NC(=O)[C@H](CCSC)NC(=O)[C@H](CC(=O)O)NC(=O)[C@H](C)NC(=O)[C@H](C)NC(=O)[C@@H](NC(=O)[C@H](CO)NC(=O)[C@@H](N)CC(C)C)[C@@H](C)O)C(C)C)C(C)C)[C@@H](C)O)C(=O)N[C@@H](C)C(=O)N[C@@H](CO)C(=O)NCC(=O)N[C@@H](CC(C)C)C(=O)N[C@@H](CC(=O)O)C(=O)N[C@@H](CCCCN)C(=O)N[C@@H](CC(=O)O)C(=O)N[C@@H](Cc1ccc(O)cc1)C(=O)N[C@@H](CC(C)C)C(=O)N[C@@H](CCCCN)C(=O)N1CCC[C@H]1C(=O)N[C@@H](CC(=O)O)C(=O)N[C@@H](CC(=O)O)C(=O)O`: “median survival, living patients” 140 weeks (p53-positive advanced solid tumour patients; dose not given, three living patients).
With `C[C@@H](NC(=O)[C@@H](CCC(N)=O)NC(=O)[C@@H](C)NC(=O)[C@@H](CCCCN)NC(=O)[C@@H](CCC(N)=O)NC(=O)[C@@H](C)NC(=O)[C@@H](CCCCN)NC(=O)[C@@H](CCC(N)=O)NC(=O)[C@@H](C)NC(=O)[C@@H](CCC(N)=O)NC(=O)[C@@H](CCCCN)NC(=O)[C@@H](C)NC(=O)[C@@H](CCC(N)=O)NC(=O)[C@@H](CCCCN)NC(=O)[C@@H](C)NC(=O)[C@@H](CCC(N)=O)NC(=O)[C@@H](C)NC(=O)[C@@H](CCCCN)NC(=O)[C@@H](CCC(N)=O)NC(=O)[C@@H](C)NC(=O)[C@@H](CCCCN)NC(=O)[C@@H](CO)NC(=O)[C@@H](Cc1ccc(O)cc1)NC(=O)CNC(=O)CNC(=O)CN)C(=O)N[C@H](CCCCN)C(=O)N[C@H](CCC(N)=O)C(=O)N[C@H](C)C(=O)N[C@H](CCCCN)C(=O)N[C@H](CCC(N)=O)C(=O)O` the transition midpoint was ~100 µM (circular dichroism, measured: enoxaparin concentration; PBS; 0.05 mg/mL).
`CC[C@H](C)[C@H](NC(=O)[C@H](CCCCN)NC(=O)CNC(=O)[C@H](CC(C)C)NC(=O)[C@H](Cc1ccccc1)NC(=O)[C@H](CCCCN)NC(=O)[C@H](CO)NC(=O)[C@H](Cc1ccccc1)NC(=O)[C@H](Cc1c[nH]c2ccccc12)NC(=O)[C@H](CCC(N)=O)NC(=O)[C@@H](NC(=O)[C@H](Cc1ccccc1)NC(=O)CCCCCNC(=O)CN1CCN(CC(=O)O)CCN(CC(=O)O)CCN(CC(=O)O)CC1)C(C)C)C(=O)N[C@@H](CCC(=O)O)C(=O)N1CCC[C@H]1C(=O)N[C@@H](CC(=O)O)C(=O)N[C@H](C(=O)N[C@@H](CO)C(=O)N[C@@H](CCC(N)=O)C(=O)N[C@H](C(=O)N[C@@H](CCC(N)=O)C(=O)N[C@@H](CC(=O)O)C(=O)N1CCC[C@H]1C(=O)N[C@@H](CC(N)=O)C(=O)N[C@@H](CC(=O)O)C(=O)N[C@@H](CCC(N)=O)C(=O)N[C@@H](Cc1ccc(O)cc1)C(=O)N[C@@H](CCC(=O)O)C(=O)N1CCC[C@H]1C(=O)N[C@@H](Cc1ccccc1)C(=O)O)C(C)C)C(C)C` [copper-64 labelled]: “increase in tumour uptake” ~50% (mice bearing CT26 tumours; 2 h, added: anti-PD1 plus anti-CTLA4; reference: vehicle).
`O=C(O)/C=C/c1ccc(O)cc1`: “DPPH radical scavenging” 67.6 ± 0.5% (250 µg/mL).
For `Cc1cc(O)c(I)c(C)c1C[C@H](N)C(=O)N[C@H](C)C(=O)N[C@@H](Cc1ccccc1)C(=O)N[C@@H](Cc1ccccc1)C(N)=O`, the ED50 was 1.72 µg (analgesia, tail flick; C57BL/6 wild-type mouse; intrathecal).
For `CC(C)C[C@@H]1NC(=O)[C@H](C(C)C)NC(=O)[C@H](CO)NC(=O)CNC(=O)CNC(=O)[C@H](CCCNC(=N)N)NC(=O)[C@@H]2CCCN2C(=O)[C@@H](NC(=O)CC[C@H](NC(=O)c2ccc(N(C)Cc3cnc4nc(N)nc(N)c4n3)cc2)C(=O)O)C(C)(C)SSC[C@@H](C(=O)O)NC(=O)CNC(=O)[C@H]([C@@H](C)O)NC(=O)[C@H](C(C)C)NC1=O`, the liver weight was 6.2 ± 0.172 g (rat adjuvant arthritis; iv, 0.2 mg/kg once daily, day 14).
With `C[C@H](NC(=O)[C@H](CCC(N)=O)NC(=O)[C@H](CCCCN)NC(=O)[C@H](C)NC(=O)[C@@H]1CCCN1C(=O)[C@H](C)NC(=O)[C@H](CCCCN)NC(=O)[C@H](CCC(N)=O)NC(=O)[C@H](C)NC(=O)[C@H](CCCCN)NC(=O)[C@H](CCC(N)=O)NC(=O)[C@@H]1CCCN1C(=O)[C@H](CCC(N)=O)NC(=O)[C@H](CCCCN)NC(=O)[C@H](C)NC(=O)[C@H](CCC(N)=O)NC(=O)[C@H](CCCCN)NC(=O)[C@H](C)NC(=O)[C@@H]1CCCN1C(=O)[C@H](C)NC(=O)[C@H](CCCCN)NC(=O)[C@H](CCC(N)=O)NC(=O)[C@H](C)NC(=O)[C@H](CCCCN)NC(=O)[C@H](CO)NC(=O)[C@H](Cc1ccc(O)cc1)NC(=O)CNC(=O)CNC(=O)CN)C(=O)N[C@@H](CCCCN)C(=O)N[C@@H](CCC(N)=O)C(=O)O` the binding ratio was 0.03 (human ALκ4 amyloid extract; 1 h, room temperature; reference: 1 M NaCl over PBS).
`C=C(NC(=O)C(=C)NC(=O)c1csc(C2=NC3c4csc(n4)C4NC(=O)c5csc(n5)C(C(C)(O)C(C)O)NC(=O)C5CSC(=N5)C(=CC)NC(=O)C(C(C)O)NC(=O)c5csc(n5)C3(CC2)NC(=O)C(C)NC(=O)C(=C)NC(=O)C(Cc2ccccc2)NC(=O)C(C(C)CC)NC2C=Cc3c(C(C)O)cc(nc3C2O)C(=O)OC4C)n1)C(N)=O` (centres unmarked) has an IC50 of 340 ± 20 nM (protein synthesis, coupled transcription-translation, measured: luciferase; Escherichia coli S30 extract; 1 h, 37 °C).
The binding ratio of `CC(C)[C@H](N)C(=O)N[C@@H](Cc1ccc(O)cc1)C(=O)N[C@@H](CCCCN)C(=O)N[C@H](C(=O)N[C@@H](CCCCN)C(=O)N[C@H](C(=O)N[C@@H](CCCCN)C(=O)N[C@H](C(=O)N[C@@H](CCCCN)C(=O)N[C@H](C(=O)N[C@@H](CCCCN)C(=O)N[C@H](C(=O)N[C@@H](CCCCN)C(=O)N[C@H](C(=O)N[C@@H](CCCCN)C(=O)N[C@H](C(=O)N[C@@H](CCCCN)C(=O)N[C@H](C(=O)O)[C@@H](C)O)C(C)C)[C@@H](C)O)C(C)C)[C@@H](C)O)C(C)C)[C@@H](C)O)C(C)C` is reported as 0.017 (human ALκ4 amyloid extract; 1 h, room temperature; reference: 1 M NaCl over PBS).
Under “thermal relaxation half-life”, `CC(=O)N[C@@H](Cc1c[nH]c2ccccc12)C(=O)NCC(=O)N[C@@H](C)C(=O)N[C@H]1CSCC(=O)Nc2ccc(cc2)N=Nc2ccc(c(S(=O)(=O)O)c2)-c2ccc(cc2S(=O)(=O)O)N=Nc2ccc(cc2)NC(=O)CSC[C@@H](C(=O)N[C@@H](CCCNC(=N)N)C(=O)N[C@@H](CCC(=O)O)C(=O)N[C@@H](C)C(=O)N[C@@H](C)C(=O)N[C@@H](C)C(=O)N[C@@H](CCCNC(=N)N)C(=O)N[C@@H](CCC(=O)O)C(=O)N[C@@H](C)C(=O)N[C@@H](CCC(N)=O)C(N)=O)NC(=O)[C@H](C)NC(=O)[C@H](C)NC(=O)[C@H](CCC(=O)O)NC(=O)[C@H](CCCNC(=N)N)NC(=O)[C@H](C)NC(=O)[C@H](C)NC(=O)[C@H](C)NC(=O)[C@H](CCC(=O)O)NC(=O)[C@H](CCCNC(=N)N)NC(=O)[C@H](C)NC(=O)[C@H](C)NC(=O)[C@H](C)NC(=O)[C@H](CCC(=O)O)NC1=O` is recorded as 3.5 ± 0.1 min (cis-to-trans reversion, UV-Vis absorbance; 10 mM phosphate buffer; pH 7.0, 37 °C, added: 365 nm irradiation).
Under “reduction of tumour weight”, `CCOC(=O)Nc1ccc2c(c1)CN1C(=S)N(c3ccc(C#N)c(C(F)(F)F)c3)C(=O)C1C2` (centres unmarked) is recorded as 49.4% (mouse, 22Rv1 orthotopic xenograft; intravenous, 25 mg/kg/day; reference: vehicle).
For `Cc1cc(Nc2nc(C[C@@]3(C(=O)O)CCN(Cc4cccc(Cl)c4F)[C@H](C)C3)cc(C)c2F)[nH]n1`, “tumour growth inhibition” read 102% (mouse, IMR-32 neuroblastoma xenograft; oral, 10 mg/kg once daily).
The inhibition of `COc1ccc([N+](=O)[O-])cc1NC(=O)CCC(=O)[O][Zn][O]C(=O)CCC(=O)Nc1cc([N+](=O)[O-])ccc1OC.c1ccncc1` is reported as 75.4% (ABTS scavenging; 500 µg/mL).
Under protein level, `CCN(CCCCOc1ccc(CCC(=O)N2CCC(Cc3ccccc3)CC2)cc1OC)Cc1ccccc1` is recorded as “decreased” (decrease, ELISA, measured: TNF-α; APP/PS1 transgenic mice, cerebral cortex; dose not given).
`CC[C@H](C)[C@H](NC(=O)[C@H](Cc1ccc(O)cc1)NC(=O)[C@@H]1CCCN1C(=O)[C@H](CCCNC(=N)N)NC(=O)[C@H](CCCNC(=N)N)NC(=O)[C@@H](N)CO[C@@H]1O[C@H](CO[C@H]2O[C@H](CO)[C@H](O)[C@H](O)[C@H]2O)[C@@H](O)[C@H](O)[C@H]1O)C(=O)N[C@@H](CC(C)C)C(=O)O` gave an ED50 of 0.0004 nmol (6 Hz seizure test; CF-1 mouse; intracerebroventricular, 30 min, 32 mA corneal stimulation).
`CCOP(=O)(OCC)OCCCCOC(=O)CC1=C(C)C(=Cc2ccc([S+](C)[O-])cc2)c2ccc(F)cc21` (centres unmarked) — result for “protein level reduction”: 40% (immunoblotting, measured: ADAM17; nude mice, orthotopic A549 tumour, tumour; inhalation, dose not given; reference: vehicle).
Under “α4β7+ CCR9+ cells”, `CC[C@H](C)[C@H](NC(=O)[C@@H](NC(=O)[C@H](CC(=O)O)NC(C)=O)[C@@H](C)O)C(=O)N[C@@H](CCCNC(=N)N)C(=O)N[C@@H](CC(C)C)C(=O)N[C@@H](CC(C)C)C(=O)N[C@@H](Cc1ccccc1)C(=O)N[C@@H](CCC(N)=O)C(=O)N[C@@H](CC(C)C)C(=O)N[C@@H](CCSC)C(=O)N[C@@H](CCCNC(=N)N)C(=O)N1CCC[C@H]1C(=O)N1CCC[C@H]1C(=O)N[C@@H](CC(N)=O)C(=O)N[C@@H](CCSC)C(=O)N[C@H](C(=O)N1CCC[C@H]1C(=O)N[C@@H](C)C(=O)N[C@H](C(=O)N[C@@H](CC(N)=O)C(=O)N[C@@H](C)C(N)=O)C(C)C)[C@@H](C)O` is recorded as 15% (measured: HA-23 tetramer; antigen-experienced tetramer+ CD4 T cells, healthy adults, HLA-DRB1*0101; dose not given).

A few entries again:
With `C[C@@H](NC(=O)[C@@H](CCC(N)=O)NC(=O)[C@@H](C)NC(=O)[C@@H](CCCCN)NC(=O)[C@@H](CCC(N)=O)NC(=O)[C@@H](C)NC(=O)[C@@H](CCCCN)NC(=O)[C@@H](CCC(N)=O)NC(=O)[C@@H](C)NC(=O)[C@@H](CCC(N)=O)NC(=O)[C@@H](CCCCN)NC(=O)[C@@H](C)NC(=O)[C@@H](CCC(N)=O)NC(=O)[C@@H](CCCCN)NC(=O)[C@@H](C)NC(=O)[C@@H](CCC(N)=O)NC(=O)[C@@H](C)NC(=O)[C@@H](CCCCN)NC(=O)[C@@H](CCC(N)=O)NC(=O)[C@@H](C)NC(=O)[C@@H](CCCCN)NC(=O)[C@@H](CO)NC(=O)[C@@H](Cc1ccc(O)cc1)NC(=O)CNC(=O)CNC(=O)CN)C(=O)N[C@H](CCCCN)C(=O)N[C@H](CCC(N)=O)C(=O)N[C@H](C)C(=O)N[C@H](CCCCN)C(=O)N[C@H](CCC(N)=O)C(=O)O` the transition midpoint was ~100 µM (circular dichroism, measured: enoxaparin concentration; PBS; 0.05 mg/mL).
`CC[C@H](C)[C@H](NC(=O)[C@H](CCCCN)NC(=O)CNC(=O)[C@H](CC(C)C)NC(=O)[C@H](Cc1ccccc1)NC(=O)[C@H](CCCCN)NC(=O)[C@H](CO)NC(=O)[C@H](Cc1ccccc1)NC(=O)[C@H](Cc1c[nH]c2ccccc12)NC(=O)[C@H](CCC(N)=O)NC(=O)[C@@H](NC(=O)[C@H](Cc1ccccc1)NC(=O)CCCCCNC(=O)CN1CCN(CC(=O)O)CCN(CC(=O)O)CCN(CC(=O)O)CC1)C(C)C)C(=O)N[C@@H](CCC(=O)O)C(=O)N1CCC[C@H]1C(=O)N[C@@H](CC(=O)O)C(=O)N[C@H](C(=O)N[C@@H](CO)C(=O)N[C@@H](CCC(N)=O)C(=O)N[C@H](C(=O)N[C@@H](CCC(N)=O)C(=O)N[C@@H](CC(=O)O)C(=O)N1CCC[C@H]1C(=O)N[C@@H](CC(N)=O)C(=O)N[C@@H](CC(=O)O)C(=O)N[C@@H](CCC(N)=O)C(=O)N[C@@H](Cc1ccc(O)cc1)C(=O)N[C@@H](CCC(=O)O)C(=O)N1CCC[C@H]1C(=O)N[C@@H](Cc1ccccc1)C(=O)O)C(C)C)C(C)C` [copper-64 labelled]: “increase in tumour uptake” ~50% (mice bearing CT26 tumours; 2 h, added: anti-PD1 plus anti-CTLA4; reference: vehicle).
`O=C(O)/C=C/c1ccc(O)cc1`: “DPPH radical scavenging” 67.6 ± 0.5% (250 µg/mL).
